Results collected from several papers.
Compare with care: the assays were run in different laboratories. ± gives the spread as reported.
Tripartite terminase subunit 3 C-terminal nuclease domain: Tripartite terminase subunit 3, C-terminal nuclease domain (Human betaherpesvirus 5, UniProt P16732)
Sequence of UniProt P16732 (whole entry, looked up): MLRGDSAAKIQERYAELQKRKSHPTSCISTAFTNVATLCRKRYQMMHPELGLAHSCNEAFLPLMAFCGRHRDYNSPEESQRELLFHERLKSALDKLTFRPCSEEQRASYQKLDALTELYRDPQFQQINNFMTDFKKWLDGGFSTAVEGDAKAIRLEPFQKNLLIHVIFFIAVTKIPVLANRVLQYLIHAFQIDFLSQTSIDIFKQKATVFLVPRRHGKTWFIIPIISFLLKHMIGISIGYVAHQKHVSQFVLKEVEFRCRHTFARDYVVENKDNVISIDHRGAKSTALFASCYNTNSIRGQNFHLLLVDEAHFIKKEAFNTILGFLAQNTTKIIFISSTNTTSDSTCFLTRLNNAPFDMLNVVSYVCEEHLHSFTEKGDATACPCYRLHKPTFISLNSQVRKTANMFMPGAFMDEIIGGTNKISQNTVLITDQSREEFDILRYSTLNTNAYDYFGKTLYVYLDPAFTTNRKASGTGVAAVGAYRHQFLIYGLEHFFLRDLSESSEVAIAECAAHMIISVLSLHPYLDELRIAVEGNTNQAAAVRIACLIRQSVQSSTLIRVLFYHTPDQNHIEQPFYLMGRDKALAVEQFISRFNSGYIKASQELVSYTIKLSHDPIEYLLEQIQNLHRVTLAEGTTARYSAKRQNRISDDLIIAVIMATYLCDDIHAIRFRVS
ADORA1: Adenosine receptor A1 (ADORA1, Homo sapiens, UniProt P30542)
Sequence of UniProt P30542 (whole entry, looked up): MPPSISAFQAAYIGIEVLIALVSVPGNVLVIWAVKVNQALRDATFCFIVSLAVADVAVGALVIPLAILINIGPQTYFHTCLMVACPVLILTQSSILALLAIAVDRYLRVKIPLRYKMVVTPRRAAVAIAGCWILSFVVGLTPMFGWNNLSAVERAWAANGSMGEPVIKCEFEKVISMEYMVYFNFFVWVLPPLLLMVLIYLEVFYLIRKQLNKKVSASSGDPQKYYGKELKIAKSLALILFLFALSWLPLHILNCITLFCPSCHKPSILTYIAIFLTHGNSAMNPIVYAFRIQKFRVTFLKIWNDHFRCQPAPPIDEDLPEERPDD
Sequence of UniProt P06935 (whole entry, looked up): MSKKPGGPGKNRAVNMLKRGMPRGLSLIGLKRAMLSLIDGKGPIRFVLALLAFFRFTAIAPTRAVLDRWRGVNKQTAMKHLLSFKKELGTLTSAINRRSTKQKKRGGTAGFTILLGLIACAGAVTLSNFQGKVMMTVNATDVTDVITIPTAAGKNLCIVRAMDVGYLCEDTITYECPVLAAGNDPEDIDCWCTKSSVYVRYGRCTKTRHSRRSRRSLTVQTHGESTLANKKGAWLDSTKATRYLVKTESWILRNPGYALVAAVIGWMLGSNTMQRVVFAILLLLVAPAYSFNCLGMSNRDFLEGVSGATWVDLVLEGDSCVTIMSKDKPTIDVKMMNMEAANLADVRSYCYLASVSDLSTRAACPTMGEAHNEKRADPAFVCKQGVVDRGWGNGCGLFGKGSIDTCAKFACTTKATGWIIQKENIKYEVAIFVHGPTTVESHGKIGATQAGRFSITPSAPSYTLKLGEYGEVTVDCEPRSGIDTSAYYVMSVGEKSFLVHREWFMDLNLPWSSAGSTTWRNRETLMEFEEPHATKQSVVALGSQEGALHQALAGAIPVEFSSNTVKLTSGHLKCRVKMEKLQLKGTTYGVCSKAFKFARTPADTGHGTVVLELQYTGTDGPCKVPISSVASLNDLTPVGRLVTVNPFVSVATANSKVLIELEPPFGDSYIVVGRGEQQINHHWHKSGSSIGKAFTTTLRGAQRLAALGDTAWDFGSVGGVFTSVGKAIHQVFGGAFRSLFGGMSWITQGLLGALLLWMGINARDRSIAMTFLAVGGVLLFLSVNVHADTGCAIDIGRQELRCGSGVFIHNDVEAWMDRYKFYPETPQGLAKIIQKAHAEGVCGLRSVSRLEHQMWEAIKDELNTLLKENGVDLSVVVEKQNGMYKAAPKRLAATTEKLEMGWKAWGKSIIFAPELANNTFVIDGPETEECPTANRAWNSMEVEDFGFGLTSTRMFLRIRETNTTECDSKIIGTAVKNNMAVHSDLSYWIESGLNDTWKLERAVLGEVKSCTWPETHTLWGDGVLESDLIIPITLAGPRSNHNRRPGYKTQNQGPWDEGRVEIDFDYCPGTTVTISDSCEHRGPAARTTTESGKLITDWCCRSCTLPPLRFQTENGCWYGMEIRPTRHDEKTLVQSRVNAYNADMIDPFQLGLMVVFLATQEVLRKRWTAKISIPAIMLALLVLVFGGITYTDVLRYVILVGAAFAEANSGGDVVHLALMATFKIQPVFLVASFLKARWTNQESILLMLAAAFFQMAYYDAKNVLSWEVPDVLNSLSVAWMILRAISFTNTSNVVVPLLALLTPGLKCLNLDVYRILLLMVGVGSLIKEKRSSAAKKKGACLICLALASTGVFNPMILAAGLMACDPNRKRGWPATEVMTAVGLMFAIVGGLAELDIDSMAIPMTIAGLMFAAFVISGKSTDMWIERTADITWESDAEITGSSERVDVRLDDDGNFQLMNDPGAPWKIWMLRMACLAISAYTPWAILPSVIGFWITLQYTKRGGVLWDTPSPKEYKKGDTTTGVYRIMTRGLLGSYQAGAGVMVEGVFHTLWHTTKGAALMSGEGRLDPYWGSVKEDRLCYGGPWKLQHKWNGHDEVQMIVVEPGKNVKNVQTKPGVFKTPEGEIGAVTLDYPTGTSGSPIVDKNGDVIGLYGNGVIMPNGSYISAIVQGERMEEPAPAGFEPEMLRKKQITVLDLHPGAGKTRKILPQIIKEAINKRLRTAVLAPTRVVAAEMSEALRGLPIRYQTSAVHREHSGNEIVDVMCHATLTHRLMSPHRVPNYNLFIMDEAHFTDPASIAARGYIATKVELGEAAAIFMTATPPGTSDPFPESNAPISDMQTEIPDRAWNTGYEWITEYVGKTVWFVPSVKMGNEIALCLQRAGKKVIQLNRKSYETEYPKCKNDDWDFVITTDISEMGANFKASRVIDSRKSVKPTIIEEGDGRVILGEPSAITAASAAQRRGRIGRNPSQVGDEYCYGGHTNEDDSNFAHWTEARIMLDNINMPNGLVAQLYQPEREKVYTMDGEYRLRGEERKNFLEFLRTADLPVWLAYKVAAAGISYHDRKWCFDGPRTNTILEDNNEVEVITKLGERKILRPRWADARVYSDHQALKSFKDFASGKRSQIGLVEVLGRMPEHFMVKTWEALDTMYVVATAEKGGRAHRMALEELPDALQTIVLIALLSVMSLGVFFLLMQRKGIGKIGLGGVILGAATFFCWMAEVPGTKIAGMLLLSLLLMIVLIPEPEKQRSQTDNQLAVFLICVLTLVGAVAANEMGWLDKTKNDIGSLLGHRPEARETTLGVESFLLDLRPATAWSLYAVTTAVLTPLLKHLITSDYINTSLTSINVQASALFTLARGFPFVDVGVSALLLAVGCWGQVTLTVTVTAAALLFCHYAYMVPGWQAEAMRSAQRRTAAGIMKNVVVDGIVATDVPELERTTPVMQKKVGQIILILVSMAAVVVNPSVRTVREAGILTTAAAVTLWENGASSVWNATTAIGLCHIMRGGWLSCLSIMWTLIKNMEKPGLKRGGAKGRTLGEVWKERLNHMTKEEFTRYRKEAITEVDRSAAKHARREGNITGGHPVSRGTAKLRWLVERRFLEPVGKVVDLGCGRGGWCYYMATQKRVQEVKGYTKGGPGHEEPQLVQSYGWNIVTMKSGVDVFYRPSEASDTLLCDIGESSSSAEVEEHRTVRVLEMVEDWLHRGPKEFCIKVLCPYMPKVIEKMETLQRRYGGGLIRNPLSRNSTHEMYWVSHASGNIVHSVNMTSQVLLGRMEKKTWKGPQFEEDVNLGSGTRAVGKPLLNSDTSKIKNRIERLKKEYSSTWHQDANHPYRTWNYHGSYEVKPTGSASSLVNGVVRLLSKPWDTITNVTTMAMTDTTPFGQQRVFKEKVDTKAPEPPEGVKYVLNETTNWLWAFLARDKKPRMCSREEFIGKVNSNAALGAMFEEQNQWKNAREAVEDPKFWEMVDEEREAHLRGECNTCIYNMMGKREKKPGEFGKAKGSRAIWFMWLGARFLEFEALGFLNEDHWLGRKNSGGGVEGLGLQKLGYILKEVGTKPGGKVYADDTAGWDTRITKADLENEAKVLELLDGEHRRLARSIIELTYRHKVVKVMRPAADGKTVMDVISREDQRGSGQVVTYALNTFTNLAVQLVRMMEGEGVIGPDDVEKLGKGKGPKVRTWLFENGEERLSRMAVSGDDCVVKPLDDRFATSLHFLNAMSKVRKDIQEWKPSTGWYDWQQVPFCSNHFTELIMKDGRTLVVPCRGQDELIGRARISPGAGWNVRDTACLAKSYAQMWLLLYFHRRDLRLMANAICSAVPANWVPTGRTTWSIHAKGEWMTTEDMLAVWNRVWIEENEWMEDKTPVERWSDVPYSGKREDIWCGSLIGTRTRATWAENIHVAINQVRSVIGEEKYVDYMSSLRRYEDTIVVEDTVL
Sequence of UniProt Q96HE7 (whole entry, unmodified, looked up): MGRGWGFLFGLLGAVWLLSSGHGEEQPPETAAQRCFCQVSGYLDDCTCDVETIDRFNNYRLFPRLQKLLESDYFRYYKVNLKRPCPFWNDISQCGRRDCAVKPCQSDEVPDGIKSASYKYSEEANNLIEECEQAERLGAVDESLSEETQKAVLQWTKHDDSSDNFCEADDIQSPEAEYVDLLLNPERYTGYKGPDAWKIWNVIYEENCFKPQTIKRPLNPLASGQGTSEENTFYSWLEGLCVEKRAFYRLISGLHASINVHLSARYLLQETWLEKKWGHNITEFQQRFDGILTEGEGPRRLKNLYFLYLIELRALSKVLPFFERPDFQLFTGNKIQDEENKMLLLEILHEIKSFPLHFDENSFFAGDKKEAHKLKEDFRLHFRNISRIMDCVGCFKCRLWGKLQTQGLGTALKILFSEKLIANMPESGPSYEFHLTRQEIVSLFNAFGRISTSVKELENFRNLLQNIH

O=C(Nc1ccc2c(c1)B(O)OC2)c1ccc(C(F)(F)F)cc1  inhibition (Genome polyprotein, NS2B-NS3 protease (West Nile virus, UniProt P06935); enzyme activity, FRET; 50 µM, together with: substrate 50 µM): 11 ± 6%
O=C1c2ccccc2C(c2ccccc2)C(=O)N1OCc1ccccc1 (stereo not shown)  inhibition (Tripartite terminase subunit 3 C-terminal nuclease domain; endonuclease activity, ELISA; 20 µM, together with: dsDNA): 5.1%
O=C(Nc1cnccc1Cl)N1CCN(Cc2ccc3c(c2)OC(F)(F)O3)CC1  inhibition (ADORA1; binding; 10 µM, together with: [3H]DPCPX): 10%
COc1cc(Nc2ncc3c(n2)-c2ccc(Cl)cc2C(c2c(F)cccc2OC)=NC3)ccc1C(=O)O  maximum inhibition (human coronavirus OC43; virus-induced cell killing; MRC-5; maximum over 10 doses): 0%
CN(C)CCNC(=O)c1ccc2c(c1)C1(CCN(CC3CC3)C1)CN2Cc1ccccc1 (stereo not shown)  cytotoxicity efficacy (Vero-E6; CellTiter-Glo ATP; concentration not given, 72 h, retest 8-point duplicates; reference: DMSO 0%, hyamine -100%, more negative, more toxic): 0%
CC(=O)N[C@H]1[C@H]([C@H](O)[C@H](O)CO)OC(C(=O)O)=C[C@@H]1O  inhibition (Sialidase A (nanA, Streptococcus pneumoniae, UniProt P62575); 8 µM, pH 6): 68.3 ± 2.7%
O=c1[nH]c2sc(-c3ccc(F)cc3)cc2c(=O)n1O  inhibition (Tripartite terminase subunit 3 C-terminal nuclease domain; endonuclease activity, ELISA; 20 µM, together with: dsDNA): 100%
CN1CCN(c2cc(-c3ccncc3)c(-c3ccc4ccccc4c3)nn2)CC1  inhibition (ADORA1; antagonist, FLIPR; 10 µM): 7.9%
CNc1ccc(C(=O)Oc2cc(O/N=[N+](\[O-])N(C)C)c([N+](=O)[O-])cc2[N+](=O)[O-])cc1  maximum inhibition (human coronavirus OC43; virus-induced cell killing; MRC-5; screen): 13.6%
O=C(Nc1ccc2c(c1)B(O)OC2)c1ccc(Oc2ccccc2)cc1  inhibition (Genome polyprotein, NS2B-NS3 protease (dengue virus type 2, UniProt P29990); enzyme activity, FRET; dengue virus serotype 2; 50 µM, together with: substrate 50 µM): 14 ± 2%
Nc1ccncc1  inhibition (Glutamate receptor 2 (Homo sapiens, UniProt P42262); ion current, negative allosteric modulator, automated patch clamp; HEK293; 3 µM): 12%
COc1cc(Nc2ncc(F)c(Nc3ccc4c(n3)NC(=O)C(C)(C)O4)n2)cc(OC)c1OC  inhibition (TAOK3 (Homo sapiens, UniProt Q9H2K8); KINOMEscan; 10 µM): 66%
Cn1cccc1-c1cccnc1  inhibition (DRD5 (Homo sapiens, UniProt P21918); binding; 50 µM): -26.4%
O=C(NCc1ccc(B(O)O)cc1)c1cccc(OCc2ccccc2)c1  inhibition (Genome polyprotein, NS2B-NS3 protease (West Nile virus, UniProt P06935); enzyme activity, FRET; 50 µM, together with: substrate 50 µM): ≤ 10%
CN(C(=O)n1cnc(-c2ccc[n+]([O-])c2)c1)C1CCCCC1  inhibition (HRH4 (Homo sapiens, UniProt Q9H3N8); radioligand binding; 10 µM, together with: [3H]histamine): 5%
CC12C(=O)OC(=O)C1(C)C1CCC2O1 (stereo not shown)  inhibition (Serine/threonine-protein phosphatase 5 (Homo sapiens, UniProt P53041); enzyme activity, inhibitor, DiFMUP; concentration not given): inhibited
N[C@@H]1C[C@H]1c1ccccc1 (racemic)  inhibition (ERO1-like protein alpha (Homo sapiens, UniProt Q96HE7, C104A/C131A/C166A); enzyme activity, inhibitor, Amplex Red; recombinant enzyme; up to 200 µM): no inhibition
COc1ccc(S(=O)(=O)Oc2ccc3c(c2)Oc2nc4c(c(N)c2C3c2cccc(OC)c2)CCCC4)cc1 (stereo not shown)  inhibition (APP (Homo sapiens, UniProt P05067); Aβ42 self-aggregation, inhibitor, thioflavin T fluorescence; 0.1 µM): 5.1%
O=C1CN=C(c2ccccc2)c2cc(/N=N/c3ccc(S(=O)(=O)O)cc3)ccc2N1  inhibition (HTR3A (Homo sapiens, UniProt P46098); 5-HT-induced current, inhibitor, whole-cell patch clamp; CHO cells; 100 µM, visible light, together with: 5-HT): 85 ± 3%
CN(C)c1ccc(-c2nc(-c3cccs3)c(-c3cccs3)[nH]2)cc1  cytotoxicity efficacy (Vero-E6; CellTiter-Glo ATP; concentration not given, 72 h, retest 8-point duplicates; reference: DMSO 0%, hyamine -100%, more negative, more toxic): 0%
COc1ccc(N2C(=O)N(c3c(C)cccc3Cl)Cc3cnc(Nc4ccc(C5CCN(C)CC5)cc4OC)nc32)nc1  inhibition (CSNK2A1 (Homo sapiens, UniProt P68400); kinase activity, inhibitor; 0.5 µM, kinase CK2): 19%
O=C(Nc1ccc2c(c1)B(O)OC2)c1ccccc1OCc1ccccc1  inhibition (Genome polyprotein, NS2B-NS3 protease (dengue virus type 2, UniProt P29990); enzyme activity, FRET; dengue virus serotype 2; 50 µM, together with: substrate 50 µM): 14 ± 5%

Repeated from above:
CN(C)c1ccc(-c2nc(-c3cccs3)c(-c3cccs3)[nH]2)cc1  cytotoxicity efficacy (Vero-E6; CellTiter-Glo ATP; concentration not given, 72 h, retest 8-point duplicates; reference: DMSO 0%, hyamine -100%, more negative, more toxic): 0%
O=c1[nH]c2sc(-c3ccc(F)cc3)cc2c(=O)n1O  inhibition (Tripartite terminase subunit 3 C-terminal nuclease domain; endonuclease activity, ELISA; 20 µM, together with: dsDNA): 100%
